Experimental data gathered from unrelated publications.
Values joined by “and” are separate records of one study, mostly repeats; a detail may differ. ± gives the spread as reported.
CCT8: T-complex protein 1 subunit theta (CCT8, Homo sapiens, UniProt P50990)
CASP7: Caspase-7 (CASP7, Homo sapiens, UniProt P55210)
Gria2: Glutamate receptor 2 (Gria2, Rattus norvegicus, UniProt P19491)
T1: riboswitch RNA, fused to Pepper aptamer; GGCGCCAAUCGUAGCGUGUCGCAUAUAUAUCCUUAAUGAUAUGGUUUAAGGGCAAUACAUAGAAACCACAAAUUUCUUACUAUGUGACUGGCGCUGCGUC
T2: G-quadruplex DNA (Homo sapiens); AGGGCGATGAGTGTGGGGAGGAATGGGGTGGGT
T3: G-quadruplex DNA, G-quadruplex (Homo sapiens); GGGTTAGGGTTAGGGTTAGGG

N[C@H]1CC[C@H](Nc2nccc(-c3cccnc3Oc3ccc(NC(=O)NC4CC4)c4ccccc34)n2)CC1 — log2 LFQ intensity (ADCK1 (Homo sapiens, UniProt Q86TW2); kinobead competition pulldown; HEK293/HCT116 lysate mixture; 10 µM, 1 h, 4 °C; lower = stronger competition): 20.8 and 18.6 and 20.3 and 18.9
CC1CCc2nc(-c3c[nH]nc3-c3ccccc3)ccc2N1 (centres unmarked) — number of kinases hit (human kinase panel; binding, KINOMEscan; 10000 nM, %Ctrl below 10): 0
O=C(Nc1cccc(CO)c1)c1cc(-c2ccccc2)n(-c2ccccc2)n1 — inhibition (Genome polyprotein, NS2B-NS3 protease (dengue virus type 2, UniProt P29990); enzyme activity, fluorogenic AMC substrate; 50 µM): 47%
CNC(=O)c1cnc(Nc2ccncc2)nc1-c1ccc(C)cc1 — number of kinases hit (human kinase panel; binding, KINOMEscan; 10000 nM, %Ctrl below 1): 0
C/C=C/C(=O)Nc1ccc2nc(NCCCCCN(C)C)nc(NCCCCCCN(C)C)c2c1 — inhibition (PRMT1 (Homo sapiens, UniProt Q99873); enzyme activity, inhibitor, radiometric; 50 µM): 93%
NS(=O)(=O)c1nnc(N2C(=O)c3cccc4c(N5CCOCC5)ccc(c34)C2=O)s1 — fluorescence turn-on (CA2 (Bos taurus, UniProt P00921); binding; 2 µM, pH 7.2; reference: without protein): 7 fold
Nc1nc2[nH]cnc2c(=O)[nH]1 — binding (T1, riboswitch RNA, fused to Pepper aptamer; fluorescence; 5 µM): binds
CCCCCCCCCCCCC/C=C/C=O — isoTOP-ABPP competition ratio (CCT8; competitive isoTOP-ABPP; proteome, soluble, MDA-MB-231; 100 µM, 60 min, added: iodoacetamide probe; reference: DMSO over compound-treated, higher = stronger cysteine blockade): 1.1
CCOC(=O)[C@](CC)(CCCSCCOCCOCCNC(=O)OC(C)(C)C)NC(=O)c1ccc(C2CC2)c(Cc2ccc(F)cc2)n1 — selectivity ratio (CNR2 (Homo sapiens, UniProt P34972); cAMP level; added: forskolin; reference: hCB1 over hCB2): ≥ 577 fold
CCCCCCCCCCCCCCCC(=O)N[C@@H](CCCCN)C(=O)N[C@@H](CCCCN)C(=O)N[C@@H](CO)C(=O)N[C@@H](CCCNC(=N)N)C(=O)N[C@@H](C)C(=O)N[C@@H](CC(C)C)C(=O)N[C@@H](Cc1ccccc1)C(N)=O — inhibition of platelet aggregation (F2RL3 (Homo sapiens, UniProt Q96RI0); antagonist, ex vivo light transmittance aggregometry; human, platelet-rich plasma; 0.3 mg/kg, 1 h, added: AYPGKF 160 µM; reference: baseline): 7%
CC(=O)N1C[C@H](O)C[C@H]1C(=O)N[C@H](C(=O)N[C@@H](CO)C(=O)N[C@@H](CC(=O)O)C(=O)COC(=O)c1c(C)cccc1C)C(C)C — kinact/KI (CASP7; enzyme activity, inhibitor): 2500 M⁻¹ s⁻¹
CC(/C=C/C(=O)NO)=C\[C@@H](C)C(=O)c1ccc(N(C)C)cc1 — binding stoichiometry (HDAC8 (Homo sapiens, UniProt Q9BY41); ITC; Tris-HCl buffer; concentration not given, 298 K): 0.8
CCCCCC(O)/C=C/C=O (centres unmarked) — isoTOP-ABPP competition ratio (CCT8; competitive isoTOP-ABPP; Ramos soluble proteome; 100 µM, 60 min, added: iodoacetamide probe; reference: DMSO over compound-treated, higher = stronger cysteine blockade): 1.1
CC(C)[C@@H]1NC(=O)[C@H](Cc2ccccc2)NC(=O)CSC[C@@H](C(N)=O)NC(=O)[C@H](CCC(=O)O)NC(=O)[C@H](CO)NC(=O)[C@H](Cc2c[nH]c3cccc(Cl)c23)NC(=O)[C@H](C2CCCCC2)NC(=O)[C@H](C(C)C)NC(=O)[C@H](Cc2ccc(O)cc2)NC(=O)[C@H](CC(=O)O)NC(=O)[C@H](Cc2c[nH]c3ccccc23)NC(=O)[C@H](Cc2ccc(N)nc2)NC(=O)[C@H](Cc2c[nH]c3ccc(Cl)cc23)NC(=O)[C@H](CCC(=O)O)NC1=O — remaining activity (Interleukin-1 receptor-like 2 (IL1RL2, Homo sapiens, UniProt Q9HB29); reporter gene (SEAP), inhibitor, HEK-Blue IL-36R reporter; HEK-Blue IL-36R cells; 0.046 µM, 6 h, added: IL-36β 0.03 ng/mL): 71%
CN(C)c1ccc(C2=C/C(=C/C=C/c3sc4ccccc4[n+]3C)c3ccccc3O2)cc1 — binding (T2, G-quadruplex DNA (Homo sapiens); fluorescence turn-on): binds
C#CCOC(=O)[C@]1(C)C=C(C(=O)OC(C)(C)C)C(=O)CC1 — normalized kinase activity (MAPK8 (Homo sapiens, UniProt P45983); enzyme activity, D-SENSOR; 0.02032 µM, single replicate): 1.02 and 1.04
N#CN1CC[C@H](C(=O)Nc2nc3c(s2)CN(C(=O)Cn2cc(COCCOCCOCCOCCNC(=O)CCCC[C@@H]4SC[C@@H]5NC(=O)N[C@@H]54)nn2)CC3)C1 — iBAQ abundance (Omega-amidase NIT2 (NIT2, Homo sapiens, UniProt Q9NQR4); probe binding, affinity probe, neutravidin pull-down LC-MS/MS; HEK293T, cell lysate; 5 µM, 1 h, mean of three replicates, unit not given; higher = more pulled down): 3.06e+08
COC(=O)Cc1cc2c(cc1C(=O)c1cccc(I)c1)OCO2 — desensitization time constant (Gria2; glutamate-evoked current, whole-cell patch clamp; HEK-293T; concentration not given, weighted tau, 500 ms pulse, added: glutamate): 2.4 ± 0.1 ms
CNC(=O)C[C@H](Cc1ccc(C#N)cc1)NC(=O)c1cc(-c2ccc(CN[C@H](C)c3ccc(C)cc3)o2)ccc1Cl — activity vs control (Cyclin-dependent kinase 12, with cyclin K (CDK12, Homo sapiens, UniProt Q9NYV4); enzyme activity, inhibitor; 1 µM): 98%
C=CC(=O)N1CC2(CCN(c3nc(OC4CCN(CCCOC)CC4)nc4c(OCC(F)(F)F)c(-c5c(C)ccc6[nH]ncc56)c(C5CC5)cc34)CC2)C1 — association rate constant (GTPase KRas, GDP-bound (KRAS, Homo sapiens, UniProt P01116, G12D); binding, surface plasmon resonance): 13700 ± 390 M⁻¹ s⁻¹
COc1ccc(C(OCCN2CCCC(C(=O)O)C2)(c2ccc(OC)cc2)c2ccc(OC)cc2)cc1 (centres unmarked) — [3H]-GABA uptake (SLC6A1 (Homo sapiens, UniProt P30531); GABA transport, inhibitor, radioligand uptake; HEK293F transfected; 20 µM, 15 min pre, 45 min uptake, room temperature, added: [3H]-GABA 30 nM, GABA 25 µM; higher = more uptake): 812 a.u. and 3100 a.u. and 2950 a.u. and 982 a.u. and 1050 a.u. and 652 a.u. and 937 a.u. and 690 a.u.
C[N+]1(C)CCCC1 — affinity ratio (Chrnd/Chrna1/Chrne (Mus musculus, UniProt P02716+P04756+P20782, G173S/S470W); ligand binding, agonist, single-channel kinetics; chain S; reference: wild type over mutant): 1.3
CC[C@H](C)[C@H](NC(=O)[C@H](CCC(=O)O)NC(=O)[C@H](Cc1ccc(I)cc1)NC(C)=O)C(=O)N[C@@H](CC(=O)O)C(=O)COC(=O)c1c(C)cccc1C — kinact/KI (CASP7; enzyme activity, inhibitor): 64300 M⁻¹ s⁻¹
COC(=O)Cc1cc2c(cc1C(=O)c1ccc(Cl)cc1Cl)OCO2 — deactivation time constant (Gria2; glutamate-evoked current, whole-cell patch clamp; HEK-293T; concentration not given, weighted tau, 1 ms pulse, added: glutamate): 3.6 ± 0.1 ms
C[C@@H](Nc1nc(N[C@H](C)C(F)(F)F)nc(-c2cccc(Cl)n2)n1)C(F)(F)F — maximal inhibition (IDH1 (Homo sapiens, UniProt O75874, R132C); item: 2-hydroxyglutarate; HCT-116): 87%
Cc1ccc(-n2cc(CNC(=O)c3cncc(Br)c3)cn2)cc1 — number of kinases hit (human kinase panel; binding, KINOMEscan; 10000 nM, %Ctrl below 10): 0
CC(=O)N[C@@H](CC(=O)O)C(=O)N[C@@H](Cc1ccccc1)C(=O)N[C@H](C(=O)N[C@@H](CC(=O)O)C(=O)COC(=O)c1c(C)cccc1C)C(C)(C)C — kinact/KI (CASP7; enzyme activity, inhibitor): 27500 M⁻¹ s⁻¹
O=C1c2sc(-c3ccc(N4CCC(F)C4)nc3F)nc2CCN1c1cccnc1 (centres unmarked) — specific binding (TAR DNA-binding protein 43, aggregated (TARDBP, Homo sapiens, UniProt Q13148); radioligand binding; human, FTLD-TDP type B sarkosyl-insoluble extract; 102.04 nM): 2.76 nM and 3.15 nM
C#CCCC1(CCC(=O)NCC2CN(CCCCCNC(=O)CN(CCN)C(=O)Cn3cnc4c(=O)[nH]c(N)nc43)CCN(CCCCCNC(=O)CN(CCN)C(=O)Cn3cnc4c(=O)[nH]c(N)nc43)CCN(CCCCCNC(=O)CN(CCN)C(=O)Cn3cnc4c(=O)[nH]c(N)nc43)CCN2CCCCCNC(=O)CN(CCN)C(=O)Cn2cnc3c(=O)[nH]c(N)nc32)N=N1 (centres unmarked) — change in melting temperature (T3, G-quadruplex DNA, G-quadruplex (Homo sapiens); FRET melting): 17.9 °C

A few entries again:
C=CC(=O)N1CC2(CCN(c3nc(OC4CCN(CCCOC)CC4)nc4c(OCC(F)(F)F)c(-c5c(C)ccc6[nH]ncc56)c(C5CC5)cc34)CC2)C1 — association rate constant (GTPase KRas, GDP-bound (KRAS, Homo sapiens, UniProt P01116, G12D); binding, surface plasmon resonance): 13700 ± 390 M⁻¹ s⁻¹
CC1CCc2nc(-c3c[nH]nc3-c3ccccc3)ccc2N1 (centres unmarked) — number of kinases hit (human kinase panel; binding, KINOMEscan; 10000 nM, %Ctrl below 10): 0
